Experimental data collected from several papers.
Each line is one published result; not all experiments were run side by side.
LRRK2 G2019S: Leucine-rich repeat serine/threonine-protein kinase 2 (LRRK2, Homo sapiens, UniProt Q5S007, G2019S)
LRRK2: Leucine-rich repeat serine/threonine-protein kinase 2 (LRRK2, Homo sapiens, UniProt Q5S007)

The remaining binding of C=CC(=O)N1CCCC(n2c(=O)c3ncccc3n(Cc3ccc(Oc4ccccc4)cc3)c2=O)C1 (stereo not drawn) is reported as 73% (LRRK2 G2019S; cell-free assay, competition with immobilised ligand; 1 µM).
For O=C(Nc1ccc(Oc2ncnc3[nH]cc(-c4ccccc4)c23)c(F)c1)c1c2n(n(-c3cc(F)ccc3F)c1=O)CCCC2, the inhibition was 4% (LRRK2; enzyme activity, inhibitor; 0.5 µM).
The remaining binding of Cc1ccc(-c2c(/C=C(\C#N)C(=O)NC(C)C)n(CCCO)c3ncnc(N)c23)cc1 is reported as 93% (LRRK2; cell-free assay, competition with immobilised ligand; 1 µM).
For CNC(=O)C1CCN(c2cc(C)c(F)cc2NC(=O)c2ccc(-c3cc(O)ccc3C)c(C)c2)CC1, the remaining binding was 100% (LRRK2; binding, competition with immobilised ligand; 1 µM).
CCN1CCN(Cc2ccc(C(=O)Nc3ccc(C)c(NCc4cnc5[nH]ccc5c4OC)c3)cc2C(F)(F)F)CC1 gave a remaining binding of 89% (LRRK2 G2019S; binding, competition with immobilised ligand; 1 µM).
COc1c(Cl)cccc1Nc1c(-c2ccncc2C#C[C@@]2(C)CCCN2C(=O)/C=C/CN(C)C)[nH]c2c1C(=O)NCC2 has a remaining binding of 73% (LRRK2 G2019S; binding, competition with immobilised ligand; 3 µM).
With Nc1ncc2c(n1)-c1c([nH]c3ccc(C4=CCOCC4)cc13)CCC2 the remaining binding was 100% (LRRK2 G2019S; binding, competition with immobilised ligand; 1 µM).
The remaining binding of CNC1C[S+]2CC[S+]3CC[S+](C1)[Ru-4]321([N]=C=S)[n]2c3ccc(OC)cc3c3c4c(c5cc(F)c[n+]1c5c32)C(=O)NC4=O (stereo not drawn) is reported as 80% (LRRK2 G2019S; KinomeScan; 0.1 µM; baseline: untreated).
Cc1cnc2nc1Nc1cccc(c1)COC/C=C/COCc1cc(ccc1OCCN1CCOCC1)N2 has a remaining binding of 100% (LRRK2; binding; 0.1 µM).
The remaining binding of CC(C)=CC1OC(C)(C)C2C=C3C(=O)C(Cl)=CC(O)C3C3C(O)C4OC4C(=O)C132 (stereo not drawn) is reported as 64% (LRRK2; cell-free assay, competition with immobilised ligand; 10 µM).
NC(=O)C[C@H]1CCc2sc3ncnc(O[C@H]4CC[C@H](N5CCOCC5)CC4)c3c21 has an inhibition of 6% (LRRK2; enzyme activity, inhibitor; 10 µM).
C=CC(=O)N1CCc2ccc(-n3c(=O)ccc4cnc5ccc(-c6cnn(C)c6)cc5c43)cc21 has a remaining binding of 95% (LRRK2 G2019S; KINOMEscan; 1 µM; baseline: DMSO control).
CNC(=O)C[C@H](Cc1ccc(C#N)cc1)NC(=O)c1cc(-c2ccc(CN[C@H](C)c3ccc(C)cc3)o2)ccc1Cl — result for “activity vs control”: 90% (LRRK2; enzyme activity, inhibitor; 1 µM).
C[C@H]1CN(C(=O)c2cn(-c3ccnc(N)n3)c3cc(C#CC4(O)CCCCC4)ccc23)CCN1 gave an inhibition of 8% (LRRK2; enzyme activity, inhibitor; 1 µM).
Cc1cccc(O[C@H]2CCC[C@@H](C(C)CNCc3ccncc3)C2)c1 (relative stereo) has an inhibition of -3% (LRRK2 G2019S; enzyme activity, inhibitor; 10 µM).
With C=CC(=O)Nc1cccc(-c2cnc3[nH]cc(C(=O)NC(C)(C)C)c3n2)c1 the inhibition was 62% (LRRK2 G2019S; enzyme activity, inhibitor; 0.1 µM).
The remaining binding of C[C@]1(O)CCCN(c2nc(Nc3ccc(S(=O)(=O)N[C@H]4CC[C@H](CN5CCN(c6ccc(C7CCC(=O)NC7=O)cc6F)CC5)CC4)cc3)ncc2C(F)(F)F)C1 (stereo partly drawn) is reported as 45% (LRRK2; binding, competition with immobilised ligand; 1 µM).
O=C(Cc1ccc(OCc2ccccc2)cc1)NC1(C(=O)O)CCN(C(=O)c2ccc(-c3cccc(Cl)c3)cc2)CC1: “activity vs control” 102% (LRRK2; enzyme activity, inhibitor; 10 µM).
